{"data": "Results gathered from unrelated publications", "note": "A part holds a random share of what one study measured. “And” joins repeats or separate records; there may be more than shown.", "chain of UniProt P9WI81 (whole entry, looked up)": "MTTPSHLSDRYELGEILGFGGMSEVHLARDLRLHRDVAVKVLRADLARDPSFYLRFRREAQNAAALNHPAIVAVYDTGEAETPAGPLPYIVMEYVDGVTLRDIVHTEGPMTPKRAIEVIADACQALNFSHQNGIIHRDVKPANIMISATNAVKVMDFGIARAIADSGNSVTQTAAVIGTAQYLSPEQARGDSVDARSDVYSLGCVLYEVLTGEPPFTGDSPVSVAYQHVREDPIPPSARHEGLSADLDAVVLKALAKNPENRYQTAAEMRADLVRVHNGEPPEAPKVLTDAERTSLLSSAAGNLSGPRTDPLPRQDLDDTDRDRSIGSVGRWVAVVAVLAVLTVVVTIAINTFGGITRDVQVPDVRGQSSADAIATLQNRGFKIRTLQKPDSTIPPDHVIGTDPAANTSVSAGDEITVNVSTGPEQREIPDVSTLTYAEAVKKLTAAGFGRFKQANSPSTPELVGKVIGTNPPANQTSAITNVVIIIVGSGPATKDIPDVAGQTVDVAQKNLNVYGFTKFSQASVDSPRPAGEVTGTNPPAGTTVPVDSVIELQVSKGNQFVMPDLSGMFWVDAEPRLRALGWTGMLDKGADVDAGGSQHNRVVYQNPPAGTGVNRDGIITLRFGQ", "chain of UniProt Q9H3N8 (whole entry, looked up)": "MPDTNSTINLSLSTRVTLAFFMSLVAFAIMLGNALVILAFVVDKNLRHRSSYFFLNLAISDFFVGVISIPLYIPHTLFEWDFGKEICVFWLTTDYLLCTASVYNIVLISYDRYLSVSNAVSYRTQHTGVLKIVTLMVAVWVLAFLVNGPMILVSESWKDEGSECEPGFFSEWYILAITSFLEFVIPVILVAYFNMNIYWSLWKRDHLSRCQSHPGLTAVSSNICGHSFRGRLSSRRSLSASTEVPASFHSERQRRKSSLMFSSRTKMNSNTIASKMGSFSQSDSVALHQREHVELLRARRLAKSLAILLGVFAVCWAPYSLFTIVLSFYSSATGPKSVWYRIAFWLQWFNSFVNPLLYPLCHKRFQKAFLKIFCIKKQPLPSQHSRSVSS"}
{"data": "Series 1", "Compound": "c1ccc(Oc2ccc(Nc3c4c(nc5ccccc35)CCC4)cc2)cc1", "organism": "Leishmania donovani", "effect on": "parasite growth"}
{"strain": "DD8 amphotericin B-resistant", "medium": "intracellular amastigotes", "concentration": "20 µM", "inhibition": "100%"}
{"concentration": "4 µM", "notes": "intracellular, amastigote", "inhibition": "37%"}
{"strain": "DD8 amphotericin B-resistant", "medium": "promastigotes", "concentration": "1.66 µM", "inhibition": "54% and 48% and 40% and 42% and 51% and 47%"}
{"concentration": "3.33 µM", "notes": "promastigote", "inhibition": "23%"}
{"strain": "DD8 amphotericin B-resistant", "medium": "promastigotes", "concentration": "0.66 µM", "inhibition": "12% and 20% and 15% and 14%"}
{"strain": "DD8 amphotericin B-resistant", "medium": "intracellular amastigotes", "concentration": "0.08 µM", "inhibition": "2% and 5%"}
{"data": "Series 2", "cell line": "HEK-293T/ACE2", "effect on": "pseudovirus infection", "technique": "counter-screen", "organism": "VSV pseudotyped with VSV-G", "concentration": "10 µM", "time": "16 h", "relative to": "vehicle-treated"}
{"SMILES": "CCN(C)C(=O)Oc1cccc([C@H](C)N(C)C)c1", "GFP-positive cells": "109%"}
{"SMILES": "Cc1cccc(C)c1OCC(=O)N[C@@H](Cc1ccccc1)[C@@H](O)C[C@H](Cc1ccccc1)NC(=O)[C@H](C(C)C)N1CCCNC1=O", "GFP-positive cells": "95%"}
{"SMILES": "CCn1cc(C(=O)O)c(=O)c2cc(F)c(N3CCNC(C)C3)c(F)c21 (stereo not drawn)", "GFP-positive cells": "103%"}
{"SMILES": "CN(C)c1cc(NC(=O)CNC(C)(C)C)c(O)c2c1C[C@H]1C[C@H]3[C@H](N(C)C)C(O)=C(C(N)=O)C(=O)[C@@]3(O)C(O)=C1C2=O", "GFP-positive cells": "108%"}
{"SMILES": "CCCCC1=NC2(CCCC2)C(=O)N1Cc1ccc(-c2ccccc2-c2nnn[nH]2)cc1", "GFP-positive cells": "97.3%"}
{"SMILES": "COc1ccc(OC)c(C(O)CNC(=O)CN)c1 (stereo not drawn)", "GFP-positive cells": "115%"}
{"data": "Series 3", "cell line": "HEK-293T-ACE2-TMPRSS2", "technique": "cell count", "concentration": "10 µM"}
{"Compound": "CC(c1cccs1)N(C)C(=O)c1ccc(OC2CCN(Cc3ccccn3)CC2)cc1 (stereo not drawn)", "viability [%]": 111}
{"Compound": "CCn1ncc(CN2CC(F)(F)C[C@H]2c2nc(C(=O)NC)no2)c1C", "viability [%]": 92}
{"Compound": "COCCc1nc2ccc(C(=O)N3CCCC3c3nc4ccc(C)cc4[nH]3)cc2o1 (stereo not drawn)", "viability [%]": 111}
{"Compound": "c1cncc(-c2ccnc(N3CCCCC3)n2)c1", "viability [%]": 98}
{"Compound": "CCN(CCn1cccn1)C(=O)c1ccc(OC2CCN(C(=O)C3CC3)CC2)cc1", "viability [%]": 109}
{"Compound": "CC(=O)NCC(=O)N1CC(F)(F)C[C@H]1c1nc(C2CC2)no1", "viability [%]": 93}
{"Compound": "CC(C)c1cc(C(=O)N2Cc3ccc(CN4CCN(C)CC4)cc3C2)c(O)cc1O", "viability [%]": 113}
{"Compound": "CCOC(=O)c1ccc(Nc2nc3nonc3nc2Nc2cccc(C)c2C)cc1", "viability [%]": 66}
{"data": "Single results of other studies", "CRK2": "Cyclin-dependent kinase 2 homolog (CRK2, Plasmodium falciparum, UniProt P61075)", "chain of UniProt P61075 (whole entry, looked up)": "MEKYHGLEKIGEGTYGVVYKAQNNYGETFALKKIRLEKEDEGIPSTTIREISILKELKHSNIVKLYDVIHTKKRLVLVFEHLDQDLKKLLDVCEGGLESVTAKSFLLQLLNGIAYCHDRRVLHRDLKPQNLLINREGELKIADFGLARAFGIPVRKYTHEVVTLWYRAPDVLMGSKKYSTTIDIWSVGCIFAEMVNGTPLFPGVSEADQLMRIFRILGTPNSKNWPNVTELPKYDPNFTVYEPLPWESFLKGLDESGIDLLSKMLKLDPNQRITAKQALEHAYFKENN"}
{"Compound": "c1ccc(N2CCN(Cc3nc4ccccc4[nH]3)CC2)nc1", "target": "Serine/threonine-protein kinase PknB (pknB, Mycobacterium tuberculosis, UniProt P9WI81)", "effect on": "cell-free assay", "technique": "competition with immobilised ligand", "concentration": "1 µM", "measurement": "remaining binding", "value": "87%"}
{"Compound": "CSc1cccnc1N1CCN(Cc2nc3ccccc3[nH]2)CC1", "target": "CRK2", "effect on": "cell-free assay", "technique": "competition with immobilised ligand", "concentration": "1 µM", "measurement": "remaining binding", "value": "92%"}
{"Compound": "Cc1c(N2CCNCC2)nc2ccc(Br)cc2c1C(=O)NC[C@H](CCC(=O)O)c1ccccc1Cl", "target": "Histamine H4 receptor (HRH4, Homo sapiens, UniProt Q9H3N8)", "effect on": "ligand displacement", "concentration": "10 µM", "measurement": "inhibition", "value": "-15.1%"}
{"Compound": "Cc1c[nH]c2nccc(Oc3c(F)cc(Nc4cc(Cl)nc(N)n4)cc3F)c12", "target": "CRK2", "effect on": "cell-free assay", "technique": "competition with immobilised ligand", "concentration": "0.1 µM", "measurement": "remaining binding", "value": "72%"}
{"note": "For quick reference, copied from above (series 3):"}
{"Compound": "CC(=O)NCC(=O)N1CC(F)(F)C[C@H]1c1nc(C2CC2)no1", "viability [%]": 93}
{"Compound": "CCn1ncc(CN2CC(F)(F)C[C@H]2c2nc(C(=O)NC)no2)c1C", "viability [%]": 92}
